Published values gathered from unrelated publications.
Numbered parts are unrelated; each lists some results of a single study.

Set 1
Target: RNA binding protein fox-1 homolog 2, RRM domain, GST-SBP tag (RBFOX2, Homo sapiens, UniProt O43251-10, residues 100-194)
Method: RNA Bind-n-Seq
Molecule type: RNA
Medium: in vitro
Concentration: 365 nM
Setting: natural RNA segment, single round, ends assumed
Baseline: no-protein control
Direction: higher = stronger binding
Residues (chain): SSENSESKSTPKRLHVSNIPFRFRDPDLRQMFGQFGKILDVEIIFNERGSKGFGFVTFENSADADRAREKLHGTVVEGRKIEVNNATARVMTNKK
Under “RBNS enrichment (R)”, `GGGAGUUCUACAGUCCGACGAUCUCUUGGCCACCUCCCCAUUCACAACUACUUUCUCGCUCCCAGAAGGUUGAUCAGAUAUUCUACAAUCACAGAGUAGCAAGGACGUUUGAGAUGGGUAUAUCAGUAAGAAGUGGAAUUCUCGGGUGCCAA` is recorded as 0.442.
Under “RBNS enrichment (R)”, `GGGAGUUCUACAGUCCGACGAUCUAGAAUAAUUCUCAGCUUCCCUUGCUUUCUAUCUUGUGUGUAGUGAAAUAAUAGAGCGAGCACCCAUUCCAAAGCUUUAUUACCAGUGACGUUGUUGCAUGUUUGAAAUUUGGAAUUCUCGGGUGCCAA` is recorded as 3.
`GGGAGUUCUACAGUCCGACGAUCAUACCAUAUAGUAACAGCAGUAAUUCUGUCUCAGUGUGCUUGCAAGGAAACUUUUCUUAUAAAGAGAAAAAAAAGUUACAAUUUACUACUGCCCUAGUUAGGACAGACAUUGGAAUUCUCGGGUGCCAA`: “RBNS enrichment (R)” 0.655.
`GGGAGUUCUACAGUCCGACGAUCGGUUUGUAUAUGUGGUGAAUUCCUGCAAGAACAGUGCAUUUGUAUUAGAAAUGUAAGUUUUAAGGAUGGCCUUGUUGCCUUCUAUCAAGUUCUCUGGGACUUUGUAAUUUUGGAAUUCUCGGGUGCCAA` — result for “RBNS enrichment (R)”: 0.913.
`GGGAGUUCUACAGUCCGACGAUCCAUUUCAUACAACAGAAACCAGAAAAGCAAUACUGUUUCCAUUUUAAGGAUAUGAUUAAUAUUAUUAAUAUAAUAAUGAUGAUGAUGAUGAUGAAAACUAAGGAUUUUUCUGGAAUUCUCGGGUGCCAA` — result for “RBNS enrichment (R)”: 0.698.
For `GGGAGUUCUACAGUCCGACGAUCCUGUGACAAUCAGCAAAGCCCCACCCAGGCCCCCAUCUGGGAUGAUGGGAGAGCUCUGGCAGAUGUCCCAAUCCUGGAGGUCAUCCAUUAGGAAUUAAAUUCUCCAGCCUUGGAAUUCUCGGGUGCCAA`, “RBNS enrichment (R)” read 0.338.

Set 2
Target: RING finger protein unkempt homolog, zinc fingers 1-6, GST-SBP tag (UNK, Homo sapiens, UniProt Q9C0B0, residues 30-357)
UniProt Q9C0B0, sequence (30-357, looked up): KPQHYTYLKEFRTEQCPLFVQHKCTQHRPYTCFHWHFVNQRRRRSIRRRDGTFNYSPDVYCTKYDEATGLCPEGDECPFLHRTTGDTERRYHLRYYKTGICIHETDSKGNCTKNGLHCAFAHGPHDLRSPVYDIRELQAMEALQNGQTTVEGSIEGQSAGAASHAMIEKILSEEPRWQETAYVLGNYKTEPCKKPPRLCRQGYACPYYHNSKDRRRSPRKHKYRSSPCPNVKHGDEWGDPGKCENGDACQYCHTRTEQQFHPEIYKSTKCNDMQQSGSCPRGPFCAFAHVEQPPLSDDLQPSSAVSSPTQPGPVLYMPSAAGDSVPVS
Method: RNA Bind-n-Seq
Molecule type: RNA
Medium: in vitro
Concentration: not given
Setting: RNA with constant flanks, ends assumed
Baseline: input RNA pool
Direction: higher = stronger binding
With `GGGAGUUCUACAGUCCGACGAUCAAAAGAUCUAAUCCUCAAGUUGGUGUAGCCUUCCCUUACAUUAAGGACGCCUAUGAGUGUUCCGUUUAUGUGCAGCUGCCUUUCAUGGAAGACUUGCGGCAAUACAUGUUUUCCUCGCUGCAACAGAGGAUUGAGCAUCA` the bound/input enrichment was 0.12 ratio.
The bound/input enrichment of `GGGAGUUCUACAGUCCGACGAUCAUGAAGCCAAAUAUUGAACCUCCUGAGAAUGUGGAGUGGAGUGGUGCUGAAGCCUCCAUGUUCCGAGUCCUCAUUGGUACUUACUACGAUAACUUUUGUGCCAUUGCUAGGCUAAUUGGGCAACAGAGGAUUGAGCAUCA` is reported as 0.283 ratio.
`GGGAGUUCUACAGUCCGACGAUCCUGUGCGACUAUUCUCCGGGAGCCGUCCGUGUCACCGCCGGAACCUGGCGCAGGUUAAUUACCGAAAAUGCCAAGUAGGAAAUUUGCCGAUGGUGAAGUGGUAAGAGGUCGAUGGCCUGGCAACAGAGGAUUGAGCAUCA` gave a bound/input enrichment of 0.0993 ratio.
With `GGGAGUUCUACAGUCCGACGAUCUCUUACACCAUCCAGUCUGAACUGGGAGACUACGACCCAGAACUCCAUGGCGUGGAUUAUGUCCGUGAUUUUAAACUGGCCCCGAAUCAGACCAAGGAACUUGAAGAGAAGGUCAUGGAACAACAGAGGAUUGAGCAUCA` the bound/input enrichment was 0.154 ratio.
`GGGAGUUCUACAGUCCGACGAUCUGCCGGCUCUGUUUUUCUGUAAAUAAAUUUGCAUAUUUUGUAGGACUUUUAAUUGUAAUGACCGAGAAAAAAACAAGGAAAACUAUUUAAUGAAAGCACGAUAUUUAUCUUUGGUAAAUGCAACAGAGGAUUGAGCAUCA` gave a bound/input enrichment of 0.269 ratio.
`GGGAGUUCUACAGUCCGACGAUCACUGGAAAGACUCUGGUUGCCAGAGCACUUGCCAAUGAGUGCAGUCAAGGGGAUAAAAGAGCCGCAUUUUUCAUGAGGAAAGGUGCUGAUUGUCUAAGUAAAUGGGUAGGAGAAUCUGAACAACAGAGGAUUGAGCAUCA` has a bound/input enrichment of 0.18 ratio.
The bound/input enrichment of `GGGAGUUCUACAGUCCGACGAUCAUACAUGAUCUAGCAAGCCAAGCUGCCACCAUUUGCAGUCCAGAUUUUUUACUAGAUGCUUCCGAACUAUGUAAACAUACUUUAAUGGCUGUAGAGCUUUCCAGACAAUGCCAAAUGGAUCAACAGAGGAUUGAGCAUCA` is reported as 0.924 ratio.
With `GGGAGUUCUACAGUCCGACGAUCUCUCUACCUCACCUCAGUGGUCAGGGCUGCCUCCACCCAGCAUUGGAAGAGGUCAUUGUGAACCGAACCGUUGAUGUGCUCAGCUGUUCACUGAACCCCUGAGCAUGAGUUGAACAUAGACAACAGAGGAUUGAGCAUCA` the bound/input enrichment was 0.179 ratio.

Set 3
Target: Ras GTPase-activating protein-binding protein 1, RRM domain (G3BP1, Homo sapiens, UniProt Q13283)
UniProt Q13283, sequence (whole entry, looked up): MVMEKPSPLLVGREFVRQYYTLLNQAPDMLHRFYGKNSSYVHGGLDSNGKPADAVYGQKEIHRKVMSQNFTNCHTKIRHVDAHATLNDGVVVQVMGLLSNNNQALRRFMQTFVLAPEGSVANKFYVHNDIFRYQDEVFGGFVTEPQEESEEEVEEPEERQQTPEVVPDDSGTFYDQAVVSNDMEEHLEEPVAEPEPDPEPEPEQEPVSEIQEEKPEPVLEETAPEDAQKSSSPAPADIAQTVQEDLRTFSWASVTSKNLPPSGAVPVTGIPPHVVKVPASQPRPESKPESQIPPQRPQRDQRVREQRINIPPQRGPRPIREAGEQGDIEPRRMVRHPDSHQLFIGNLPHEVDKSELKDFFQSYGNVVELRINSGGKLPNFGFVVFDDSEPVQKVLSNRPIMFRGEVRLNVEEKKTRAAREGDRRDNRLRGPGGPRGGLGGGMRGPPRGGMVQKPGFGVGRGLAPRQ
Method: RNA Bind-n-Seq
Molecule type: RNA
Medium: in vitro
Concentration: 1 µM
Setting: whole 134-nt RNA, ends assumed
With: 150 mM KCl
Baseline: input library
Direction: higher = stronger binding
With `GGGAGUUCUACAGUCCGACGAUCUGUGCUACACAUCGUAUGUACCGAAUCGGGAAAAAAAGGGGAAAAAAAGGGAAAAAAAGGGGAAAGUAUUAUGUUACGCCGUUCGGAUCUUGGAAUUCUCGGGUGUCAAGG` the log2 enrichment was 0.384.
With `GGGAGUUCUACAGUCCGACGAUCACCAUGCAGGUGGGCAUCUUUGGGAAGUGGGGCAAGGGGGGGAUAGGGAGGGGUGUAACACUUUGGGAACAGGUGGUCCCAGGUCGUUUCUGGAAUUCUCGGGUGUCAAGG` the log2 enrichment was 0.731.
The log2 enrichment of `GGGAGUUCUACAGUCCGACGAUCUGGCCCUGGGGGCAUGCGGGGAGGAAGAGGUGGCCUCAUGGAUCGUGGUGGUCCCGGUGGAAUGUUCAGAGGUGGCCGUGGUGGAGACAGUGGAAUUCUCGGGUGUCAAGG` is reported as 0.927.
With `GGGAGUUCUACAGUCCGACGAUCGCAGGAAGUAAAAACAAAUGGAAAUGCUUCGGAUAGUGGCAGGGGUGGGGGUUGCUAAGGAAAGGGUGGGAUGGGAGUGGGUAAAGAGCUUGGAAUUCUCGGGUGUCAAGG` the log2 enrichment was 1.
The log2 enrichment of `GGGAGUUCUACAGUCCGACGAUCUCCUGUGCUACACAUCGUAUGUACCGAAUCGGGUUUUUUGGUUUUUUGGGGUUUUUUGGGAAAGUAUUAUGUUACGCCGUUCGGAUCUGCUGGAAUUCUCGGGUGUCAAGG` is reported as -0.0823.
For `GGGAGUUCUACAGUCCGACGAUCGCAGGAAGUAAAAACAAAUGGAAAUGCUUCGGAUAGUGGCAGGGGAGGGGGUUGCUAAGGAAAGGGUGGGAUGGGAGUGGGUAAAGAGUUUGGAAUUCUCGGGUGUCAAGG`, the log2 enrichment was 1.12.
`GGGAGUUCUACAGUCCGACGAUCGUCCUGUGCUACACAUCGUAUGUACCGAAUCGGGAAAAAAAGGGAAAAAGGGUUUGGGAAAGUAUUAUGUUACGCCGUUCGGAUCUGCACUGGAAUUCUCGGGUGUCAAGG` has a log2 enrichment of 0.0233.
`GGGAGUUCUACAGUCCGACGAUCUCCUGUGCUACACAUCGUAUGUACCGAAUCGGGGUUUGGGGAAAGGGGAAAAAAAGGGGAAAGUAUUAUGUUACGCCGUUCGGAUCUGCAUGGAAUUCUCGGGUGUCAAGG` gave a log2 enrichment of 0.758.
For `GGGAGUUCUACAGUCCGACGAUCGCAGGAAGUAAAAACAAAUGGAAAUGCUUCGGAUAGUGGCAGGGGUGGGGGUUGCUAAGGAAAGGGUGGGAUGGGCGUGGGUAAAGAGUUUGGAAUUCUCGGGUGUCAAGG`, the log2 enrichment was 0.74.
For `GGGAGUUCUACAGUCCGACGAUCGCAGGAAGUAAAAACAAAUGGAAAUGCUUCGGAUAGUGGCAGGGGUGGGGGUUGCUAAGGAAAGGGUGGGAUGGGAGUGGCUAAAGAGUUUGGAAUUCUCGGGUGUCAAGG`, the log2 enrichment was 1.2.

Set 4
Target: Sal-like protein 4, full length isoform B (SALL4, Homo sapiens, UniProt Q9UJQ4-2, residues 1-616)
Method: universal PBM
Molecule type: double-stranded DNA, one strand shown
Medium: in vitro
Concentration: not given
Setting: 8-mer, flanks averaged, mean of replicates
Direction: higher = stronger binding
Construct (chain): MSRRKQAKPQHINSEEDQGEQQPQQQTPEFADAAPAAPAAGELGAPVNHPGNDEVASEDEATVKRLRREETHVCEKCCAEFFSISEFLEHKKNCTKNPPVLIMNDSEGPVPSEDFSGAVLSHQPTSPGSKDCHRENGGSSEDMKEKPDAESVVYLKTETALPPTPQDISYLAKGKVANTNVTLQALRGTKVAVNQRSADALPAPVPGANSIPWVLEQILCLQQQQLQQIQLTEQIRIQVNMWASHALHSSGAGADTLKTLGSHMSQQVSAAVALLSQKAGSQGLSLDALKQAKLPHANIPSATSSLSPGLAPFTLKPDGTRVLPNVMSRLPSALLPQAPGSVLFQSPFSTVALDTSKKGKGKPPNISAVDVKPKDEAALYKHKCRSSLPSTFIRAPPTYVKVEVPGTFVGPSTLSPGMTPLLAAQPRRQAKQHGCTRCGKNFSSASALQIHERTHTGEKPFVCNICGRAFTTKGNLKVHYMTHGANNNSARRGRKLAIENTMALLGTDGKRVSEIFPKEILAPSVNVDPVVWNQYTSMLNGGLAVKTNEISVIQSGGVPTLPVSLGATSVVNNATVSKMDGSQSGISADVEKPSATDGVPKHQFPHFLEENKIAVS
For `ACAGTAGA`, the E-score was 0.179.
`GCCAACGA` gave an E-score of -0.138.
With `ACAGGACA` the E-score was 0.015.
With `ACGGATTG` the E-score was -0.149.
The E-score of `GGCTGCCC` is reported as -0.339.
For `ACCGCCGG`, the E-score was -0.351.
For `TATGAAAA`, the E-score was 0.423.
`CCAAACAA` gave an E-score of 0.0263.
For `AGTTCATC`, the E-score was 0.0685.
The E-score of `ATTACTAA` is reported as 0.337.
`AGGAGTCG` gave an E-score of -0.195.
`GACTAATA` gave an E-score of 0.344.
`AGCCAATA` has an E-score of 0.165.
`CGGACAAG` has an E-score of -0.151.
With `AAATTCTG` the E-score was 0.181.
`AACGGAGC` gave an E-score of -0.225.
`AAGACTAC` gave an E-score of 0.169.
With `GATAAGCC` the E-score was -0.144.
The E-score of `GCGGCCCC` is reported as -0.342.
The E-score of `GAGCTATA` is reported as 0.182.
With `GACGGTCC` the E-score was -0.325.
`GAGAAACA` has an E-score of 0.173.
For `ACGTTGTA`, the E-score was 0.135.
`GATTCAAC` has an E-score of -0.212.

Repeated from above (set 1):
Under “RBNS enrichment (R)”, `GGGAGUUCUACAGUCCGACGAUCUCUUGGCCACCUCCCCAUUCACAACUACUUUCUCGCUCCCAGAAGGUUGAUCAGAUAUUCUACAAUCACAGAGUAGCAAGGACGUUUGAGAUGGGUAUAUCAGUAAGAAGUGGAAUUCUCGGGUGCCAA` is recorded as 0.442.
Under “RBNS enrichment (R)”, `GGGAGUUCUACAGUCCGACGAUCUAGAAUAAUUCUCAGCUUCCCUUGCUUUCUAUCUUGUGUGUAGUGAAAUAAUAGAGCGAGCACCCAUUCCAAAGCUUUAUUACCAGUGACGUUGUUGCAUGUUUGAAAUUUGGAAUUCUCGGGUGCCAA` is recorded as 3.
`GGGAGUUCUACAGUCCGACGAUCAUACCAUAUAGUAACAGCAGUAAUUCUGUCUCAGUGUGCUUGCAAGGAAACUUUUCUUAUAAAGAGAAAAAAAAGUUACAAUUUACUACUGCCCUAGUUAGGACAGACAUUGGAAUUCUCGGGUGCCAA`: “RBNS enrichment (R)” 0.655.
`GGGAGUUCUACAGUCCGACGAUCCAUUUCAUACAACAGAAACCAGAAAAGCAAUACUGUUUCCAUUUUAAGGAUAUGAUUAAUAUUAUUAAUAUAAUAAUGAUGAUGAUGAUGAUGAAAACUAAGGAUUUUUCUGGAAUUCUCGGGUGCCAA` — result for “RBNS enrichment (R)”: 0.698.
For `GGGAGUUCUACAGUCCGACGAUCCUGUGACAAUCAGCAAAGCCCCACCCAGGCCCCCAUCUGGGAUGAUGGGAGAGCUCUGGCAGAUGUCCCAAUCCUGGAGGUCAUCCAUUAGGAAUUAAAUUCUCCAGCCUUGGAAUUCUCGGGUGCCAA`, “RBNS enrichment (R)” read 0.338.
`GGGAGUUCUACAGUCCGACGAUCGGUUUGUAUAUGUGGUGAAUUCCUGCAAGAACAGUGCAUUUGUAUUAGAAAUGUAAGUUUUAAGGAUGGCCUUGUUGCCUUCUAUCAAGUUCUCUGGGACUUUGUAAUUUUGGAAUUCUCGGGUGCCAA` — result for “RBNS enrichment (R)”: 0.913.
